Results collected from several papers.
Protocols differ between the studies behind these lines. ± gives the spread as reported.
UGT1A1: UDP-glucuronosyltransferase 1A1 (UGT1A1, Homo sapiens, UniProt P22309)
Sequence of UniProt P22309 (whole entry, looked up): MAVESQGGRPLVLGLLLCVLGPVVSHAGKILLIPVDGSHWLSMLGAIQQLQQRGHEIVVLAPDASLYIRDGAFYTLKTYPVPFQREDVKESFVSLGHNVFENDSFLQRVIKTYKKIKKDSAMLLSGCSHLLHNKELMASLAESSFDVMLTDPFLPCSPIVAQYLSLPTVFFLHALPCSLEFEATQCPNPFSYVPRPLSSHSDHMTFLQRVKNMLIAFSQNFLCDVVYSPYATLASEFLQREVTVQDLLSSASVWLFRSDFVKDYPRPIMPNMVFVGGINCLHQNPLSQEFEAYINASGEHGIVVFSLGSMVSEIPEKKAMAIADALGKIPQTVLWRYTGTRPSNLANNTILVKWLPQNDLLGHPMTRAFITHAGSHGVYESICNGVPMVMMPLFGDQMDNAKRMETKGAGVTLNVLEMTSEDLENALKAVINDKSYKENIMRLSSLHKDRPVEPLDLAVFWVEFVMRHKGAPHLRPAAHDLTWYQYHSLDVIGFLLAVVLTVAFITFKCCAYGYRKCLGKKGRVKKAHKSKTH
SLCO1B3: Solute carrier organic anion transporter family member 1B3 (SLCO1B3, Homo sapiens, UniProt Q9NPD5)
Sequence of UniProt Q9NPD5 (whole entry, looked up): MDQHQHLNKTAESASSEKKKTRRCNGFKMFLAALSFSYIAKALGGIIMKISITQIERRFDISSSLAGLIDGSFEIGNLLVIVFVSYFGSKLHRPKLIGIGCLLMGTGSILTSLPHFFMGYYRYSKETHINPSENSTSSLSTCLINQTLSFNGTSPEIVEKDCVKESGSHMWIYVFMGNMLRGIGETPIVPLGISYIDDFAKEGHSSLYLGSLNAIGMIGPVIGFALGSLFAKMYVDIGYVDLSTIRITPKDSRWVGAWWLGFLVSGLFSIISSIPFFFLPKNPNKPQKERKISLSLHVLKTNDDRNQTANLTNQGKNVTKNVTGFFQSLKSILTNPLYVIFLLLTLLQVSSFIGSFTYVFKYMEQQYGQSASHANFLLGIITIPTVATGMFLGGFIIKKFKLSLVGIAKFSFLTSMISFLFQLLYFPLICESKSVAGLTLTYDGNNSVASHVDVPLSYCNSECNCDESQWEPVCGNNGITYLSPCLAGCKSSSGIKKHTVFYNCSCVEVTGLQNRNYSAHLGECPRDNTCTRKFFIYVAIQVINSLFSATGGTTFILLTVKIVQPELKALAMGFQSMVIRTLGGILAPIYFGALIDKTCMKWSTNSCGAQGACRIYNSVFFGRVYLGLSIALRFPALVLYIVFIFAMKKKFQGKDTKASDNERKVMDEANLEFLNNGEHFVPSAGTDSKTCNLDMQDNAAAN
ABCG2: Broad substrate specificity ATP-binding cassette transporter ABCG2 (ABCG2, Homo sapiens, UniProt Q9UNQ0)
Sequence of UniProt Q9UNQ0 (whole entry, looked up): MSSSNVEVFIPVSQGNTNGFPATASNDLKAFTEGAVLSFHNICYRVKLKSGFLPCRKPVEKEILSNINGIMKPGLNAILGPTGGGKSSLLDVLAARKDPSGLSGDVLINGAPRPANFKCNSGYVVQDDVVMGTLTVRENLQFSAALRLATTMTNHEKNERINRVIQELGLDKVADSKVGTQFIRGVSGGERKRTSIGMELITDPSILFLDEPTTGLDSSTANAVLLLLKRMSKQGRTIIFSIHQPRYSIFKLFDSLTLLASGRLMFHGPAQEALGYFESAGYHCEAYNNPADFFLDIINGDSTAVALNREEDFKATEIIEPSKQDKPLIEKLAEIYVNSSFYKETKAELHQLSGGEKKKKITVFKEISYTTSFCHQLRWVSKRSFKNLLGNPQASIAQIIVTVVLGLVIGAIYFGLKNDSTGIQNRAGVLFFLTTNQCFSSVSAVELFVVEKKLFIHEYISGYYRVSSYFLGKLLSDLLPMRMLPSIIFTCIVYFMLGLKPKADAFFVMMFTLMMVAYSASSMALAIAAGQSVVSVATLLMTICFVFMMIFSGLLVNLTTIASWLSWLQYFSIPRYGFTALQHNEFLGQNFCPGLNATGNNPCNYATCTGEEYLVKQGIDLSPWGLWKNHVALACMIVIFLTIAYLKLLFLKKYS
CYP2A6: Cytochrome P450 2A6 (CYP2A6, Homo sapiens, UniProt P11509)
Sequence of UniProt P11509 (whole entry, looked up): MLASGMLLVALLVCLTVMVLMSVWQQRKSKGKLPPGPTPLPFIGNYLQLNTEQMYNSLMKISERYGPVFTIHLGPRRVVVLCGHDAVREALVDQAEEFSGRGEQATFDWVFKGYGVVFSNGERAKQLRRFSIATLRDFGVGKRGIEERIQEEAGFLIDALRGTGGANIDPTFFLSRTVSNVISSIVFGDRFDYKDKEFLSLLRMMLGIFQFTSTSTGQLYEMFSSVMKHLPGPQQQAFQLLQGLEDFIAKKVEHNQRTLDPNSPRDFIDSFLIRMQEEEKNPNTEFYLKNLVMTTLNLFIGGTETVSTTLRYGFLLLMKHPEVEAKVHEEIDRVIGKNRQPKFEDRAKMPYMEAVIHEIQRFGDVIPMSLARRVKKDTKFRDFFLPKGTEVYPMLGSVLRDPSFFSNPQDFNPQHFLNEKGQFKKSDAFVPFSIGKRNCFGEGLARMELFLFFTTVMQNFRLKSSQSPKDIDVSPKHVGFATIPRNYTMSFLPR
KCNH2: Voltage-gated inwardly rectifying potassium channel KCNH2 (KCNH2, Homo sapiens, UniProt Q12809)
Sequence of UniProt Q12809 (whole entry, looked up): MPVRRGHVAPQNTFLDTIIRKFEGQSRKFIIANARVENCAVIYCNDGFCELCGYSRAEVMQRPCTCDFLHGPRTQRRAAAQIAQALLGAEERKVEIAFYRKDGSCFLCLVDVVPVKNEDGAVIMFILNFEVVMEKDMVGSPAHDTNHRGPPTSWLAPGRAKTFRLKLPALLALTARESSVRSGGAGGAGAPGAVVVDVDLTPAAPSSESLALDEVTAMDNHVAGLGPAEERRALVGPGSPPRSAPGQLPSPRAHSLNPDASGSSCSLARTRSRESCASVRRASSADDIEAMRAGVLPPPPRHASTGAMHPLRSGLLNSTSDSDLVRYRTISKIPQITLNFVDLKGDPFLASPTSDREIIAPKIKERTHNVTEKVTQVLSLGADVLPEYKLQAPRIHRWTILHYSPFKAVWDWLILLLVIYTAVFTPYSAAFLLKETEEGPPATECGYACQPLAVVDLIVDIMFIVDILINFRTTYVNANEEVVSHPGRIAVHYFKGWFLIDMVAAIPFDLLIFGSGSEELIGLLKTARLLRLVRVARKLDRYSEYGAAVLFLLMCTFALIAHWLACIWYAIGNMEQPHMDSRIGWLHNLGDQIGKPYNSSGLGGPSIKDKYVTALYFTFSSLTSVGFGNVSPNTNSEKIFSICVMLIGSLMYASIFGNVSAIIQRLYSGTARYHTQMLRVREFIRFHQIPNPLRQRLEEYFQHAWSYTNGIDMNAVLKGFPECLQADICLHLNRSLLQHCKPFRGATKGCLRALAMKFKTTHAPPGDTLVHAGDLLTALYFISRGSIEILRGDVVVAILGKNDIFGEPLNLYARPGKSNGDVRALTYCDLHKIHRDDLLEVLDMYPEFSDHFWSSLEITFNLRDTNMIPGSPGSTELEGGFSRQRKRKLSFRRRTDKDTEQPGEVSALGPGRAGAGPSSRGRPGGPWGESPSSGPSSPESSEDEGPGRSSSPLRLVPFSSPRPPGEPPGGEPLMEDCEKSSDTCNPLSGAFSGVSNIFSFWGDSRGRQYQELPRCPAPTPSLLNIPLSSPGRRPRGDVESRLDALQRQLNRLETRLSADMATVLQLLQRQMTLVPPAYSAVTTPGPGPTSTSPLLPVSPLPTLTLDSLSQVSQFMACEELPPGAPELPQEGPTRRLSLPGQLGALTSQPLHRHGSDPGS
Sequence of UniProt P21447 (whole entry, looked up): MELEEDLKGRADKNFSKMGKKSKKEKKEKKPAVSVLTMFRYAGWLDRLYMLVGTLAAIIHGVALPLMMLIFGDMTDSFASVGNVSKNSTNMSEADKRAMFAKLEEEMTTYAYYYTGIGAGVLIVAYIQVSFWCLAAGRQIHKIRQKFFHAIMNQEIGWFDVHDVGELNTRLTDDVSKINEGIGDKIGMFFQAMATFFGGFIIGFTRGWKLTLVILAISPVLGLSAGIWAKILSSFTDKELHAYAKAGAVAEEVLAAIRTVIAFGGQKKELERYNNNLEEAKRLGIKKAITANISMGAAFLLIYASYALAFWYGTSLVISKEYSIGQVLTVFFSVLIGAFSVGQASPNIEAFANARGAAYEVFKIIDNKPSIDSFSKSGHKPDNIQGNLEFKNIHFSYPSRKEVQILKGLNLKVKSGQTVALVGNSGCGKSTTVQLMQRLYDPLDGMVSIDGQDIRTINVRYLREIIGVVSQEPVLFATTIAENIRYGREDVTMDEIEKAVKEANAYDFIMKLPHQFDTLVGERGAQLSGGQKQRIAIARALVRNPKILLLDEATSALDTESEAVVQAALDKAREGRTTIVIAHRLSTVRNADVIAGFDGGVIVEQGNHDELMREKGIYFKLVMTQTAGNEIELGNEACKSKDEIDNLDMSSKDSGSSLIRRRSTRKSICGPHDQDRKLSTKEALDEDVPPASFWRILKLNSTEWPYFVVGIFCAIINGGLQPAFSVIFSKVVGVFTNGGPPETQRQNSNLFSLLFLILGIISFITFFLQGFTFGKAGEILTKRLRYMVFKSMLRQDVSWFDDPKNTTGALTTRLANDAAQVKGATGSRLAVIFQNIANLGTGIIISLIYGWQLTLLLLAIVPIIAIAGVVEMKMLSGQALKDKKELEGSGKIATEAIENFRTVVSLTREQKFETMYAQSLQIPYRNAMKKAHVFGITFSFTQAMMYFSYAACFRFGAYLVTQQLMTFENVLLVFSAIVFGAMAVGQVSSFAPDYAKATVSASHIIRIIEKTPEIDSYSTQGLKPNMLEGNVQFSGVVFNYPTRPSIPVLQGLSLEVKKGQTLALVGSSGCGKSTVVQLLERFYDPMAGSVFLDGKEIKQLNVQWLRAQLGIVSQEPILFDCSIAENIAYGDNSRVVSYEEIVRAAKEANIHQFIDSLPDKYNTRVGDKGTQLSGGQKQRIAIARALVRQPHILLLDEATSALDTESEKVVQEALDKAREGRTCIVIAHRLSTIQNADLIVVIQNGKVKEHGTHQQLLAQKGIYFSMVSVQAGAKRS

Molecule	target	assay	test system	setting	scale	endpoint	result
C[C@]12CC[C@@H]3c4ccc(O)cc4CC[C@H]3[C@@H]1CC[C@@H]2O	UGT1A1	glucuronidation, substrate	–	together with: UDPGA	–	Vmax	223 ± 10.6 pmol/min/mg
C=C	Cytochrome P450 2E1 (Cyp2e1, Rattus norvegicus, UniProt P05182)	substrate, headspace gas uptake, refers to: ethylene oxide formation	Fischer 344 rat, pooled liver microsomes	–	–	Km	31 ± 5 µM
CO[C@H]1/C=C/O[C@@]2(C)Oc3c(C)c(O)c4c(O)c(c(/C=N/N5CCN(C)CC5)c(O)c4c3C2=O)NC(=O)/C(C)=C\C=C\[C@H](C)[C@H](O)[C@@H](C)[C@@H](O)[C@@H](C)[C@H](OC(C)=O)[C@@H]1C	SLCO1B3	transport, inhibitor	HEK293 overexpressing SLCO1B3	100 µM, together with: estradiol-17β-glucuronide	relative to: vehicle	remaining activity	2.5 ± 2.6%
liraglutide	α1-acid glycoprotein human	equilibrium dialysis	–	10 nM, 4 to 5 h, pH 7.4, 37 °C, ratio 5:1 (80% bound), together with: AAGP 1 mg/mL	–	protein binding	83.8%
Cc1nc2cc(-c3cccc(Cl)c3)nn2c(N2CCN(C(=O)c3ccco3)CC2)c1C	ABCG2	JC-1 dye efflux, inhibitor, flow cytometry	ABCG2-overexpressing cells	together with: JC-1 1 µM	–	IC50	2.65 ± 1.07 µM
O=C(O)[C@H]1O[C@@H](Oc2ccc3c(=O)cc(-c4ccccc4)oc3c2)[C@H](O)[C@@H](O)[C@@H]1O	UGT1A1	glucuronidation, substrate, Supersomes	–	–	–	Km	1.89 ± 0.13 µM
CCOc1cc2ncc(C#N)c(Nc3ccc(OCc4ccccn4)c(Cl)c3)c2cc1NC(=O)/C=C/CN(C)C	ABCB1 and ABCG2	IVIVE scaling	human	–	–	BBB passive plus efflux clearance	207 mL/min
COc1cccc(-c2cc3nc(-c4ccccc4)cc(N4CCN(C(=O)c5ccoc5)CC4)n3n2)c1	ABCG2	JC-1 dye efflux, inhibitor, flow cytometry	ABCG2-overexpressing cells	together with: JC-1 1 µM	–	IC50	1.14 ± 0.59 µM
O=C(CCC(C(=O)[O-])N1CCN(C(CCC(=O)NCC(O)CO)C(=O)[O-])Cc2cccc(n2)CN(C(CCC(=O)NCC(O)CO)C(=O)[O-])CC1)NCC(O)CO.[Gd+3] (centres unmarked)	metal complex	pH-metric titration	–	pH 7.4	–	log K	15.5
O=C(O)[C@H]1O[C@@H](Oc2c(-c3ccc(O)cc3)oc3cc(O)ccc3c2=O)[C@H](O)[C@@H](O)[C@@H]1O	UGT1A1	glucuronidation, substrate, Supersomes	–	–	–	Km	1.09 ± 0.32 µM
COc1ccccc1C(=O)N1CCN(c2cc(-c3ccccc3)nc3cc(-c4cccc(Cl)c4)nn23)CC1	ABCG2	JC-1 dye efflux, inhibitor, flow cytometry	ABCG2-overexpressing cells	together with: JC-1 1 µM	–	IC50	4.92 ± 4.28 µM
O=C1CC(c2ccccc2)Oc2ccccc21 (centres unmarked)	CYP2A6	substrate, refers to: 2'-hydroxy metabolite formation	–	reconstituted system	–	Km	12 µM
O=C(Nc1cc(F)c(F)c(F)c1)[C@H]1CCN(C(=O)c2ccc(-c3ccncc3)[nH]2)C1	CYP3A4/5, human	enzyme activity, inhibitor	human liver microsomes	10 µM, 10 min, together with: midazolam and testosterone	–	inhibition	76%
CC[C@H](C)[C@H](NC(=O)[C@H](CCC(=O)O)NC(=O)[C@H](CO)NC(=O)[C@@H](NC(=O)[C@@H](N)CO)C(C)C)C(=O)N[C@@H](CCC(N)=O)C(=O)N[C@@H](CC(C)C)C(=O)N[C@@H](CCSC)C(=O)N[C@@H](Cc1cnc[nH]1)C(=O)N[C@@H](CC(N)=O)C(=O)N[C@@H](CC(C)C)C(=O)NCC(=O)N[C@@H](CCCCN)C(=O)N[C@@H](Cc1cnc[nH]1)C(=O)N[C@@H](CC(C)C)C(=O)N[C@@H](CC(N)=O)C(=O)N[C@@H](CO)C(=O)N[C@@H](CCSC)C(=O)N[C@@H](CCC(=O)O)C(=O)N[C@@H](CCCN=C(N)N)C(=O)N[C@H](C(=O)N[C@@H](CCC(=O)O)C(=O)N[C@@H](Cc1c[nH]c2ccccc12)C(=O)N[C@@H](CC(C)C)C(=O)N[C@@H](CCCN=C(N)N)C(=O)N[C@@H](CCCCN)C(=O)N[C@@H](CCCCN)C(=O)N[C@@H](CC(C)C)C(=O)N[C@@H](CCC(N)=O)C(=O)N[C@@H](CC(=O)O)C(=O)N[C@H](C(=O)N[C@@H](Cc1cnc[nH]1)C(=O)N[C@@H](CC(N)=O)C(=O)N[C@@H](Cc1ccccc1)C(=O)O)C(C)C)C(C)C	trypsin (bovine pancreas)	proteolytic degradation, HPLC-UV	–	0.5 mg/mL, 0.25 h, pH 6.5, 37 °C, together with: trypsin with soybean trypsin inhibitor	–	remaining intact compound	92 ± 1%
COc1ccccc1-c1cc(N2CCN(C(=O)c3ccoc3)CC2)n2nc(-c3ccccc3)cc2n1	ABCG2	JC-1 dye efflux, inhibitor, flow cytometry	ABCG2-overexpressing cells	together with: JC-1 1 µM	–	IC50	3.66 ± 2.54 µM
CC(C)[C@@H]1CC[C@@H](C)C[C@H]1O	CYP2A6	enzyme activity, inhibitor	–	20 µM, 10 min, 30 °C, preincubation with NADPH, together with: coumarin 7-hydroxylation substrate	relative to: no NADPH control	remaining activity	97 ± 6%
CC(=O)c1cc(C(=O)N[C@@H](C)Cn2ccc(-c3ccc(C#N)c(Cl)c3)n2)[nH]n1	SLCO1B3	transporter uptake, inhibitor	–	–	–	IC50	> 10 µM
O=C(c1ccoc1)N1CCN(c2cc(-c3ccc(F)cc3)nc3cc(-c4cccc(Cl)c4)nn23)CC1	ABCG2	JC-1 dye efflux, inhibitor, flow cytometry	ABCG2-overexpressing cells	together with: JC-1 1 µM	–	IC50	2.41 ± 0.52 µM
CC1CC(OC(=O)c2ccccc2O)CC(C)(C)C1 (centres unmarked)	KCNH2	–	–	concentration not given	–	activity class	inactive
C[C@H]1O[C@@H](O[C@H]2[C@@H](O)C[C@H](O[C@H]3[C@@H](O)C[C@H](O[C@H]4CC[C@@]5(C)[C@H](CC[C@@H]6[C@@H]5C[C@@H](O)[C@]5(C)[C@@H](C7=CC(=O)OC7)CC[C@]65O)C4)O[C@@H]3C)O[C@@H]2C)C[C@H](O)[C@@H]1O	P-glycoprotein	–	MDCK-MDR1	0.01 µM, 120 min, pH 7.4, 1% FBS	–	efflux ratio	6.75 ± 1.34
O=c1c(O)c(-c2ccc(O)cc2)oc2cc(O)ccc12	UGT1A1	glucuronidation rate, inhibitor	–	5 µM, together with: 4'-hydroxyflavone substrate	relative to: no inhibitor	inhibition	84.4 ± 2%
COc1ccc2[nH]c([S+]([O-])Cc3ncc(C)c(OC)c3C)nc2c1 (centres unmarked)	CYP isoforms, human	inhibitor	human liver microsomes	Ki and twice Ki, 1.5 h, 37 °C, together with: OMT 50 µM	relative to: no inhibitor	MT formation rate	inhibited
C=CC(=O)N1CCC([C@@H]2CCNc3c(C(N)=O)c(-c4ccc(Oc5ccccc5)cc4)nn32)CC1	SLCO1B3	transport, refers to: estradiol-17β-glucuronide uptake	HEK293 transfected	1 µM	relative to: vehicle	remaining activity	97.8 ± 7.1%
COc1cccc(C(=O)N2CCN(c3cc(-c4ccccc4)nc4cc(-c5cccc(Cl)c5)nn34)CC2)c1	ABCG2	JC-1 dye efflux, inhibitor, flow cytometry	ABCG2-overexpressing cells	together with: JC-1 1 µM	–	IC50	4.45 ± 4.68 µM
CCN(CCO)CCC[C@H](C)Nc1ccnc2cc(Cl)ccc12	KCNH2	ion current, inhibitor, patch clamp	–	–	–	IC50	74 µM
COc1ccc(-c2cc(N3CCN(C(=O)c4ccoc4)CC3)n3nc(-c4cccc(Cl)c4)cc3n2)cc1	ABCG2	JC-1 dye efflux, inhibitor, flow cytometry	ABCG2-overexpressing cells	together with: JC-1 1 µM	–	IC50	1.71 ± 0.58 µM
C[C@H]1O[C@@H](O[C@H]2[C@@H](O)C[C@H](O[C@H]3[C@@H](O)C[C@H](O[C@H]4CC[C@@]5(C)[C@H](CC[C@@H]6[C@@H]5C[C@@H](O)[C@]5(C)[C@@H](C7=CC(=O)OC7)CC[C@]65O)C4)O[C@@H]3C)O[C@@H]2C)C[C@H](O)[C@@H]1O	Abcb1a (Mus musculus, UniProt P21447)	–	LLC-PK1 cells expressing mouse Abcb1a	3.5 h, together with: zosuquidar 1 µM	apical to basolateral	Papp	4.1 ± 0.38 ×10⁻⁶ cm/s
COc1ccc(-c2cc3nc(-c4ccco4)cc(N4CCN(C(=O)c5ccoc5)CC4)n3n2)cc1	ABCG2	JC-1 dye efflux, inhibitor, flow cytometry	ABCG2-overexpressing cells	together with: JC-1 1 µM	–	IC50	0.89 µM
Cc1nc2c([nH]1)c(=O)n(C)c(=O)n2Cc1ccco1	cytochrome P450, rat	–	rat liver microsomes	20 µM, 60 min, pH 7.4	–	inhibition	38%

Repeated from above:
Molecule	target	assay	test system	setting	scale	endpoint	result
COc1ccccc1-c1cc(N2CCN(C(=O)c3ccoc3)CC2)n2nc(-c3ccccc3)cc2n1	ABCG2	JC-1 dye efflux, inhibitor, flow cytometry	ABCG2-overexpressing cells	together with: JC-1 1 µM	–	IC50	3.66 ± 2.54 µM
CC(C)[C@@H]1CC[C@@H](C)C[C@H]1O	CYP2A6	enzyme activity, inhibitor	–	20 µM, 10 min, 30 °C, preincubation with NADPH, together with: coumarin 7-hydroxylation substrate	relative to: no NADPH control	remaining activity	97 ± 6%
CC(=O)c1cc(C(=O)N[C@@H](C)Cn2ccc(-c3ccc(C#N)c(Cl)c3)n2)[nH]n1	SLCO1B3	transporter uptake, inhibitor	–	–	–	IC50	> 10 µM
O=C(c1ccoc1)N1CCN(c2cc(-c3ccc(F)cc3)nc3cc(-c4cccc(Cl)c4)nn23)CC1	ABCG2	JC-1 dye efflux, inhibitor, flow cytometry	ABCG2-overexpressing cells	together with: JC-1 1 µM	–	IC50	2.41 ± 0.52 µM
CC1CC(OC(=O)c2ccccc2O)CC(C)(C)C1 (centres unmarked)	KCNH2	–	–	concentration not given	–	activity class	inactive
